Measured values collected from several papers.
Each numbered part is a random draw from the data of one study; scales do not carry over between parts.

Study 1
Target: Interferon regulatory factor 7, full length, phosphomimetic (IRF7, Homo sapiens, UniProt Q92985, residues 1-503, S471D/S472D/S475D/S476D/S477D/S483D/S484D/S487D)
Technique: protein-binding microarray
Form: double-stranded DNA, one strand shown
Medium: in vitro
Concentration: 2200 nM top
Setting: 60-bp whole probe
Added: salmon DNA 0.4 mg/ml
Baseline: random background probes
Direction: higher = stronger binding
Residues (chain): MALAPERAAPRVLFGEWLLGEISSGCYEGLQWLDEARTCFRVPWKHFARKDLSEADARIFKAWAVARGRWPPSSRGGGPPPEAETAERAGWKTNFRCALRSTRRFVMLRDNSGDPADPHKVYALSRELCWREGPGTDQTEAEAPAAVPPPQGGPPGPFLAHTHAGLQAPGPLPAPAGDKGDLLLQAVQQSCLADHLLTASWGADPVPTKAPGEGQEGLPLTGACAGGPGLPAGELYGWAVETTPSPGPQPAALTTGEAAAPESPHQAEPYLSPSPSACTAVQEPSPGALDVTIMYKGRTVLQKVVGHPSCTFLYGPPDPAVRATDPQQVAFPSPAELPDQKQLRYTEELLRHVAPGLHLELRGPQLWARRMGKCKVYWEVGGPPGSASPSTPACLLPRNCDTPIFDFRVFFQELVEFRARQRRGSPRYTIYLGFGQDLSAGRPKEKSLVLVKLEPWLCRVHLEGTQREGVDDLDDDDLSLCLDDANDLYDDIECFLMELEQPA
`GCCTAGCACGACGGACTGCTTATCCGGACGTGCTAGGTCTTGATTCGCTTGACGCTGCTG` — result for “fitted relative affinity”: 0.0819 z-score.
For `GCCTAGCACCTGCTCCTCTTTTTTTGGTAGTGCTAGGTCTTGATTCGCTTGACGCTGCTG`, “fitted relative affinity” read 1.46 z-score.
`GCCTAGCACAGAGCTATCACTATTCTAGGGTGCTAGGTCTTGATTCGCTTGACGCTGCTG` — result for “fitted relative affinity”: -0.224 z-score.

Other studies, line by line
UNK zinc fingers 1-6, GST-SBP tag: RING finger protein unkempt homolog, zinc fingers 1-6, GST-SBP tag (UNK, Homo sapiens, UniProt Q9C0B0, residues 30-357)
UniProt Q9C0B0, sequence (30-357, looked up): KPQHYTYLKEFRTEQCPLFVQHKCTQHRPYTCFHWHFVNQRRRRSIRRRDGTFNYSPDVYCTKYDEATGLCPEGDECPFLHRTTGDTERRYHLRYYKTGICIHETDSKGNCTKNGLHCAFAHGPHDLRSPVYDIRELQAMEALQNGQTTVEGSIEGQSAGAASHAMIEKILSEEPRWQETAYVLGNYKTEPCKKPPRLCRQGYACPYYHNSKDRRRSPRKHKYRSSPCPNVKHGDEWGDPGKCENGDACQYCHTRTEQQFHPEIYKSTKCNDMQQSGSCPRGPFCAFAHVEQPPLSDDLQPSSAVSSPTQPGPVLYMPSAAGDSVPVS
G3BP1 full length: Ras GTPase-activating protein-binding protein 1, full length (G3BP1, Homo sapiens, UniProt Q13283)
UniProt Q13283, sequence (whole entry, looked up): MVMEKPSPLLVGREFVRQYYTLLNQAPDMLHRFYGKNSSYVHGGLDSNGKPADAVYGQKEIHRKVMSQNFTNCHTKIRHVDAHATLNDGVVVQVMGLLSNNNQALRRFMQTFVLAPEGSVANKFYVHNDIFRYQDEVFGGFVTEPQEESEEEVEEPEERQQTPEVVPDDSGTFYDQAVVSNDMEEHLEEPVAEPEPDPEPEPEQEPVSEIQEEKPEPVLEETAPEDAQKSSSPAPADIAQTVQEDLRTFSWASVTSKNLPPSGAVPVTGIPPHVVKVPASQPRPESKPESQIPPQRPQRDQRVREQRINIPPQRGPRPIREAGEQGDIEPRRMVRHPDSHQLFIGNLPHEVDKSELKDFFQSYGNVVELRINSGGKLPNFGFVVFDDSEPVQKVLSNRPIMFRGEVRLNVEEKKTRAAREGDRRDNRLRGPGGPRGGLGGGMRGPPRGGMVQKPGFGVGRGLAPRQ
`PhoQ, residues 284 288 289 292 302 303 GANMMA` has a fold induction of 1.08 (PhoP, residues 12 14 15 18 19 LHSVQ (Escherichia coli, UniProt P23836); Sort-seq, measured: YFP reporter; E. coli; PhoQ-PhoP variant library, added: 10 µM Mg2+; baseline: high Mg2+ state, higher = stronger signaling).
`GGGAGUUCUACAGUCCGACGAUCCAGUUUGGGAUCCCAUGAAGAGAGGGGCCCUAGGACAGCUCUUCCCUCGUCUUCACCCCGUCUCCACCCCACCUCUUCUGGCCCCCAGCCUCACUGUGGCUCUCUACAGUACCUAACCUGCAACAGAGGAUUGAGCAUCA` gave a bound/input enrichment of 0.432 ratio (UNK zinc fingers 1-6, GST-SBP tag; RNA Bind-n-Seq; RNA, in vitro; not given, RNA with constant flanks, human and mouse sites, ends assumed; baseline: input RNA pool, higher = stronger binding).
`GGGAGUUCUACAGUCCGACGAUCAGUCCUGUGCUACACAUCGUAUGUACCGAAUCGGGUGGGAAAAAAAGGGUUUUUGGGAAAGUAUUAUGUUACGCCGUUCGGAUCUGCACUUGGAAUUCUCGGGUGUCAAGG (7-deaza-guanosine replaces G)` gave a log2 enrichment of -1.35 (G3BP1 full length; RNA Bind-n-Seq; RNA, in vitro; 200 nM, whole 134-nt RNA, ends assumed, added: 150 mM LiCl; baseline: input library, higher = stronger binding).
`GGGAGUUCUACAGUCCGACGAUCGUGCAUUCUCCUCACGCUAUUGUGAGGAUGAAGUUUCUGCUGCUGCAGCAGAAGUACCUGGAAUACCUGGAGGACGGCAAGGUCCUGGAGGCACUUCAAGUUCUACGCUGCGAACUGACGCAACAGAGGAUUGAGCAUCA` gave a bound/input enrichment of 0.116 ratio (UNK zinc fingers 1-6, GST-SBP tag; RNA Bind-n-Seq; RNA, in vitro; not given, RNA with constant flanks, human and mouse sites, ends assumed; baseline: input RNA pool, higher = stronger binding).
With `GGGAGUUCUACAGUCCGACGAUCUGUGCUACACAUCGUAUGUACCGAAUCGGGGUUUUUUUGGGGUUUUUUUGGGGUUUUUGGGGAAAGUAUUAUGUUACGCCGUUCGGAUCUUGGAAUUCUCGGGUGUCAAGG (7-deaza-guanosine replaces G)` the log2 enrichment was 1.83 (G3BP1 full length; RNA Bind-n-Seq; RNA, in vitro; 200 nM, whole 134-nt RNA, ends assumed, added: 150 mM LiCl; baseline: input library, higher = stronger binding).
`GGGAGUUCUACAGUCCGACGAUCCUGAAAAACACAGAUAUCAAAGUUGUUGACUUUGGAAGUGCAACGUAUGAUGAUGAACAUCACAGUACUUUGGUGUCUACCCGGCACUACAGAGCUCCAGAGGUCAUUUUGGCUUUAGGUCAACAGAGGAUUGAGCAUCA` gave a bound/input enrichment of 0.376 ratio (UNK zinc fingers 1-6, GST-SBP tag; RNA Bind-n-Seq; RNA, in vitro; not given, RNA with constant flanks, human-mouse chimeric sites, ends assumed; baseline: input RNA pool, higher = stronger binding).
The log2 enrichment of `GGGAGUUCUACAGUCCGACGAUCUGCAUGUGCACUGAUAGGCCAAGGCCAGCUGAACCAGGCCAUGAAAAUCCUACAAAAAGCUGAAGGUUGGAAGUUUGUUAAACUUAUCUGUGGAAUUCUCGGGUGUCAAGG (7-deaza-guanosine replaces G)` is reported as -1 (G3BP1 full length; RNA Bind-n-Seq; RNA, in vitro; 200 nM, whole 134-nt RNA, ends assumed, added: 150 mM LiCl; baseline: input library, higher = stronger binding).

Some of these lines once more (other studies, line by line):
`GGGAGUUCUACAGUCCGACGAUCGUGCAUUCUCCUCACGCUAUUGUGAGGAUGAAGUUUCUGCUGCUGCAGCAGAAGUACCUGGAAUACCUGGAGGACGGCAAGGUCCUGGAGGCACUUCAAGUUCUACGCUGCGAACUGACGCAACAGAGGAUUGAGCAUCA` gave a bound/input enrichment of 0.116 ratio (UNK zinc fingers 1-6, GST-SBP tag; RNA Bind-n-Seq; RNA, in vitro; not given, RNA with constant flanks, human and mouse sites, ends assumed; baseline: input RNA pool, higher = stronger binding).
